Experimental data collected from several papers.
Lines come from different studies, so protocols differ. Several values in a cell are separate wells, animals, samples, runs or records. ± marks the error that the study gave.

C=CC(=O)Nc1cccc(Cn2ncc3cnc(Nc4cnn(CCOC)c4)nc32)c1
percent of control (BRAF human; binding, KINOMEscan; 100 nM; lower = stronger binding): 98%

CCOC(=O)C1CCCN(Cc2ccc(-c3ccccc3)cc2)C1 (stereo not shown)
translation activity (Trypanosoma cruzi; reporter mRNA translation, inhibitor, item: Renilla luciferase mRNA; cell-free extract; concentration not given, test 2; reference: positive over negative control): 106% and 111%

CC[C@H]1OC(=O)[C@H](C)[C@@H](OC(=O)Cc2cccc(Cl)c2)[C@H](C)[C@@H](O[C@@H]2O[C@H](C)C[C@H](N(C)C)[C@H]2O)[C@](C)(OC)C[C@@H](C)C(=O)[C@H](C)[C@@H](O)[C@]1(C)O
IC50 (Escherichia coli ribosome; in vitro transcription-translation, inhibitor): 460 nM

CN1CCCNC(=O)CC2(CCCCC2)CC(=O)NCCCN(C)CCCNc2cccc3c2C(=O)c2cccc(c2C3=O)NCCC1
selectivity ratio (telomeric G-quadruplex DNA; DNA binding, UV-Vis titration; reference: Ka telomeric G1 over double-stranded DNA): 243

Fc1ccc(Nc2nc(NC3CCCCC3)c3cc(Br)ccc3n2)cc1F
pIC50 (β2AR/β1AR ECL1/3 chimera; β-arrestin2 recruitment, antagonist, BRET; added: isoprenaline 1 µM): 6.6

CN(C)CCCSc1nc(-c2ccccc2)nc2c1CCC2
translation activity (Trypanosoma cruzi; reporter mRNA translation, inhibitor, item: capped polyadenylated Renilla luciferase mRNA; cell-free extract; concentration not given; reference: positive over negative control): 105% and 111% and 102%

C[C@@H]1CN(c2cc(=O)n(C)c3ccc(C#N)nc23)[C@@H](C)CN1Cc1ccc(S(=O)(=O)n2cnc(C3CC3)n2)cc1
protein abundance (about 280 kinases including DGKζ; DIA global proteomics; Jurkat; 5 µM, 6 h): no effect

CC[C@H]1OC(=O)[C@H](C)[C@@H](OC(=O)Cc2ccc(N(C)C)cc2)[C@H](C)[C@@H](O[C@@H]2O[C@H](C)C[C@H](N(C)C)[C@H]2O)[C@](C)(OC)C[C@@H](C)C(=O)[C@H](C)[C@@H](O)[C@]1(C)O
IC50 (Escherichia coli ribosome; in vitro transcription-translation, inhibitor): 860 nM

CC1(C)C[N+]2=Cc3ccc4[n]3[Au-]23[n]2c(ccc2-c2nc5ccccc5nc2-4)C=[N+]3C1.F[P-](F)(F)(F)(F)F
melting temperature (human ACTN3 291-bp linear dsDNA; high-resolution melt; 404 nM): 83.4 °C

CCC(=O)N(C)c1ccc(Cl)c(Cl)c1
inhibition (GABA-gated chloride channel; radioligand binding; 10 µM): < 10%

CC(C)=CCC/C(C)=C/CC/C(C)=C/Cc1c(O)cc(CO)c(C=O)c1O
Vmax (StaI (Stachybotrys chartarum); substrate; 30 min, pH 7.0, 45 °C): 1.74 nmol/min/mg

CC[C@H]1OC(=O)[C@H](C)[C@@H](OC(=O)c2ccc([N+](=O)[O-])cc2)[C@H](C)[C@@H](O[C@@H]2O[C@H](C)C[C@H](N(C)C)[C@H]2O)[C@](C)(OC)C[C@@H](C)C(=O)[C@H](C)[C@@H](O)[C@]1(C)O
IC50 (Escherichia coli ribosome; in vitro transcription-translation, inhibitor): 3600 nM

O=C(NCc1ccc2c(c1)CN(C(=O)c1cc(-c3ccccc3)no1)C2)C1C=CC=CC=C1
IC50 (FSP1 L323A; resorufin formation, inhibitor, resazurin; pH 7.2, added: 50 µM resazurin, 100 µM NADH): 490 ± 30 nM

c1ccc(-c2n[nH]cc2-c2ccnc3ccccc23)nc1
log2 fold change (RCK2 (Candida albicans); kinase binding, MIB/MS competition; Candida albicans lysate; 10 µM; reference: DMSO): -0.2

C1=NCCCN=Cc2ccc([nH]2)-c2nc3ccccc3nc2-c2ccc1[nH]2
melting temperature (human ACTN3 291-bp linear dsDNA; high-resolution melt; 5.3 µM): 83 °C

Cc1[nH]nc2c1N=C(c1ccccc1Cl)c1cnc(N3CCOCC3)cc1N2
inhibition (imidazoline I2 receptor, rat; radioligand binding; brain; 10 µM): 18%

C=CC(=O)N1[C@@H](c2ccc3c(c2)OCO3)c2[nH]c3ccccc3c2C[C@H]1C(=O)N1CCN(C)CC1
relative co-enrichment (human cyclin E1 N112C-3xFLAG:CDK2; co-IP with TMT proteomics, item: HNRNPU; concentration not given, Q00839; reference: wild type DMSO): 138%

C1=[N+]2CCC[N+]3=Cc4ccc5[n]4[Au-]23[n]2c1ccc2-c1nc2ccccc2nc1-5.F[P-](F)(F)(F)(F)F
melting temperature (human ACTN3 291-bp linear dsDNA; high-resolution melt; 10.2 µM): 85.8 °C

O=C(Nc1cccc(C(=O)N2CCC(c3nc(-c4ccccc4)n[nH]3)CC2)c1)c1ccccc1
IC50 (FSP1 L323A; resorufin formation, inhibitor; added: NADH, resazurin): no inhibition

Nc1ncc(-c2cc(-c3cnn(CC(F)(F)F)c3)ncc2F)nc1C(=O)NC1CNCC(F)C1 (stereo not shown)
remaining binding (TIE1; KINOMEscan; 1 µM; reference: DMSO control): 40%

CC[C@H]1OC(=O)[C@H](C)[C@@H](OC(=O)Cc2ccc(OC(F)(F)F)cc2)[C@H](C)[C@@H](O[C@@H]2O[C@H](C)C[C@H](N(C)C)[C@H]2O)[C@](C)(OC)C[C@@H](C)C(=O)[C@H](C)[C@@H](O)[C@]1(C)O
IC50 (Escherichia coli ribosome; in vitro transcription-translation, inhibitor): 3400 nM

O=C(Nc1cc(OCCN2CCCC2)c2ccccc2n1)c1cccc(C(=O)Nc2cc(OCCN3CCCC3)c3ccccc3n2)n1
ΔTm (c-kit1 G-quadruplex DNA; FRET melting; 1 µM, pH 7.4, added: 60 mM potassium): 26.2 ± 0.9 K

Fc1ccc(Nc2nc(NC3CCCCC3)c3ccccc3n2)cc1F
pIC50 (β2AR/β1AR ECL1/3 chimera; β-arrestin2 recruitment, antagonist, BRET; added: isoprenaline 1 µM): 6

C1=[N+]2CCCC[N+]3=Cc4ccc5[n]4[Au-]23[n]2c1ccc2-c1nc2ccccc2nc1-5.F[P-](F)(F)(F)(F)F
melting temperature (human ACTN3 291-bp linear dsDNA; high-resolution melt; 83.2 nM): 83 °C

CC(=O)NCCCN(C)CCCNc1cccc2c1C(=O)c1cccc(NCCCN(C)CCCNC(C)=O)c1C2=O
selectivity ratio (telomeric G-quadruplex DNA; DNA binding, UV-Vis titration; reference: Ka telomeric G1 over double-stranded DNA): 5
